Results gathered from unrelated publications.
Every numbered part comes from another study and shows a few of its results, in no order. Positions count from the first letter of the parent shown.

Sample 1 — technique: protein-binding microarray; form: double-stranded DNA, one strand shown; sample: in vitro; concentration: 2540 nM top; notes: 60-bp whole probe; together with: salmon DNA 0.4 mg/ml; baseline: random background probes; reading: higher = stronger binding; constant ends, left off below: GCCTAGCAC … GTCTTGATTCGCTTGACGCTGCTG
Target: Interferon regulatory factor 3, full length, phosphomimetic (IRF3, Homo sapiens, UniProt Q14653, residues 1-427, S386D/S396D/S398D/S402D/T404D/S405D)
Sequence of UniProt Q14653 (whole entry, unmodified, looked up): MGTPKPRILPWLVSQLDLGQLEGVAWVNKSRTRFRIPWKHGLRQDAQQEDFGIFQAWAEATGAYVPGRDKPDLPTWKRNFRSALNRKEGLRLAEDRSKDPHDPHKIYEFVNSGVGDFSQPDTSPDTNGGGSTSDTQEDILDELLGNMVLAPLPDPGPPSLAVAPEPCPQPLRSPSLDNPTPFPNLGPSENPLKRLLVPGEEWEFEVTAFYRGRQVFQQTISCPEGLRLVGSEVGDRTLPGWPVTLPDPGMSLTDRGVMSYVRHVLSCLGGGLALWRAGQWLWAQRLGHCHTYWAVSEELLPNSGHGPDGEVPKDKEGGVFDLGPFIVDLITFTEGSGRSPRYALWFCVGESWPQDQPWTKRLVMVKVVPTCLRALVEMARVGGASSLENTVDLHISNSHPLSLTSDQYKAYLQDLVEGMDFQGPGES
For `GACGGTCTCCTTATCCAGACGTGCTAG`, “fitted relative affinity” read 3.14 z-score.
For `GAGGATTTCGGGTATCGAGACGTGCTA`, “fitted relative affinity” read 0.44 z-score.
Under “fitted relative affinity”, `GAGATCATCCGTTTCTTCTAGTGCTAG` is recorded as 1.21 z-score.
For `GACGTTATCGGACTGGGGACGTGCTAG`, “fitted relative affinity” read 0.266 z-score.
For `GACGATATCGGTATCGGGACGTGCTAG`, “fitted relative affinity” read 2.11 z-score.
Under “fitted relative affinity”, `GACGGTTTCCTTTCCCTGAAGTGCTAG` is recorded as 10.5 z-score.
Under “fitted relative affinity”, `TCATCTCTTATTCTAACACTGTGCTAG` is recorded as 1.46 z-score.
Under “fitted relative affinity”, `GACGATATCGGGTATCGAGTCGTGCTA` is recorded as 0.489 z-score.
For `TTAGGTTTCGACTATCAGTTAGTGCTA`, “fitted relative affinity” read 2.6 z-score.
`TTCTTACTTTGGGATTCTGAGTGCTAG` — result for “fitted relative affinity”: 0.741 z-score.
`TTAGATTTCAGTATCGATTAGTGCTAG`: “fitted relative affinity” 2.84 z-score.
`GACGGACTTGACTTTCGGGACGTGCTA` — result for “fitted relative affinity”: 0.282 z-score.
`TTAGGACTGCCTTTCCTTTAGTGCTAG`: “fitted relative affinity” 0.575 z-score.
`TTCGATATCAGACTGGATTAGTGCTAG`: “fitted relative affinity” 0.369 z-score.
Under “fitted relative affinity”, `TTAGGTCTTGGACTGGGTTAGTGCTAG` is recorded as -0.966 z-score.
For `GACGATCTCAGTATAGAGACGTGCTAG`, “fitted relative affinity” read 0.574 z-score.
`TACGATCTCAGTCTCGAGACGTGCTAG`: “fitted relative affinity” 0.716 z-score.
`GGTCCCACCTCTTGGTGGGAGTGCTAG`: “fitted relative affinity” 1.35 z-score.
For `TTAGAACTGGTGTATCGATTAGTGCTA`, “fitted relative affinity” read -0.212 z-score.
`TTAGATTTCAGTATCGGTTAGTGCTAG` — result for “fitted relative affinity”: 3.6 z-score.

Sample 2 — technique: RNA Bind-n-Seq; form: RNA; sample: in vitro; concentration: 1 µM; notes: whole 134-nt RNA, ends assumed; together with: 150 mM KCl; baseline: input library; reading: higher = stronger binding
Target: Ras GTPase-activating protein-binding protein 1, RRM domain (G3BP1, Homo sapiens, UniProt Q13283)
Sequence of UniProt Q13283 (whole entry, looked up): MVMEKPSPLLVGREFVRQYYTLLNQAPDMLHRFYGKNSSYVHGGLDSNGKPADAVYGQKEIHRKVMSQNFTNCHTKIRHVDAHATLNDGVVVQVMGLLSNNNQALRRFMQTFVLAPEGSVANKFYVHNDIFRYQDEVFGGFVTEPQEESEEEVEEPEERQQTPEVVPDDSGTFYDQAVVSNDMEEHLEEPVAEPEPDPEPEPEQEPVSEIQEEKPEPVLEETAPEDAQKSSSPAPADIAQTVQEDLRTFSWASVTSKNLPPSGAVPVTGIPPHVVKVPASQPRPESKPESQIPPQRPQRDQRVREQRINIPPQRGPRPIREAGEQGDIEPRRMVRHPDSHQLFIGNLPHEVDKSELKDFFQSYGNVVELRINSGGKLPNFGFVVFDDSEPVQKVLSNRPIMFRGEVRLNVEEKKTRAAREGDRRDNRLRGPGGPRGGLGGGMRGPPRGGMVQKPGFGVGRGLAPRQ
The log2 enrichment of `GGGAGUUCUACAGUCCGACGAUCGUCCUGUGCUACACAUCGUAUGUACCGAAUCAAAUUUUUUUAAACCCCCAAACCCAAAAAAGUAUUAUGUUACGCCGUUCGGAUCUGCACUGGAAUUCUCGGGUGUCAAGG` is reported as -0.974.
The log2 enrichment of `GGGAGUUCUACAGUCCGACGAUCUUCCUCAAGUCCUGUGCUACACAUCGUAUGUACCGAAUCGGAGGAGGAGGAAAGUAUUAUGUUACGCCGUUCGGAUCUGCACUUCCAGCAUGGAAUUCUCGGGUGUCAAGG` is reported as -0.358.
`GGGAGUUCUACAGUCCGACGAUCACCAUGCAGGUGGGCAUCUUUGGGAAGUGGGGCAAGGGGGGGAUAGGGAGGGGGGUAACACUUAAAGAACAGGUGGUCCCAGGUCGUUUCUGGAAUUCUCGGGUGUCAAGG` has a log2 enrichment of -0.421.
`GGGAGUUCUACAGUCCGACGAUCCUGUGCUACACAUCGUAUGUACCGAAUCGGGGUUUUUGGGGAAAAAAAGGGGUUUUUGGGGAAAGUAUUAUGUUACGCCGUUCGGAUCUGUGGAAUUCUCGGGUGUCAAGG` has a log2 enrichment of 1.01.
For `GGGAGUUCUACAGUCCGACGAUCUGCUCUUCACCAAGGAGGACGAGCCUGGCCGCUGCGACGUCCUGAGGAACCCCCUCUACCUCCAGAGUGUGAAGCUGCAGGAAGGUAAGCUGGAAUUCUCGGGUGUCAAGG`, the log2 enrichment was -0.388.
The log2 enrichment of `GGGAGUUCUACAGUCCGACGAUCCCUCAAGUCCUGUGCUACACAUCGUAUGUACCGAAUCGGUUUGGAGGAAAGGAAAGUAUUAUGUUACGCCGUUCGGAUCUGCACUUCCAGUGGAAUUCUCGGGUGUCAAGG` is reported as -0.158.
With `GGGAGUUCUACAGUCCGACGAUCUGGGAGGUGGAUUUUGUUUAUUUUUUUAGCUCAUUUCCAGGGGUGGGAAUUUUAUUUUAAUAUGUGUCAUGAAUAAAGUUGUUUUUGAAAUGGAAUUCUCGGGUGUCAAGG` the log2 enrichment was 1.81.
The log2 enrichment of `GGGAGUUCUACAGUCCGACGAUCUGGCUUCGAAGUACAGUCUUUGCAGGAUGCAGGAAAUCAGCUUGGUAUGGAGGAUACAUCUCUGAGCUCUGGAAUGCUCACCCAGAACACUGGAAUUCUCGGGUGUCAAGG` is reported as -0.0937.
The log2 enrichment of `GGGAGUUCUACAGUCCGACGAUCUCAAGUCCUGUGCUACACAUCGUAUGUACCGAAUCGUGUGUGUGUGUGUGUGUGAAAGUAUUAUGUUACGCCGUUCGGAUCUGCACUUCCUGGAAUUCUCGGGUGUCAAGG` is reported as -0.0194.
With `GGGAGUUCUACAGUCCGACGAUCUCAAGUCCUGUGCUACACAUCGUAUGUACCGAAUCGGGGAAGGGAAGGGGAAGGAAAGUAUUAUGUUACGCCGUUCGGAUCUGCACUUCCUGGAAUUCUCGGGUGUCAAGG` the log2 enrichment was -0.111.
For `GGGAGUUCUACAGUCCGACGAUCUGGGACGUGGAUUUUGUUUAUUUUUUUAGCUCAUUUCCAGGGGUGGGAAUUUUUUUUUAAUAUGUGUCAUGAAUAAAGUUGUUUUUGAAAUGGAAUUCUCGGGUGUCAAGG`, the log2 enrichment was 2.36.
With `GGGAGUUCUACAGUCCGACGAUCUCAAGUCCUGUGCUACACAUCGUAUGUACCGAAUCGGAAAAAGGUUUUUGGUGGAAAGUAUUAUGUUACGCCGUUCGGAUCUGCACUUCCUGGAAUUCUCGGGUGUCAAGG` the log2 enrichment was -0.18.
For `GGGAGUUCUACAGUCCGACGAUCCCUGUGCUACACAUCGUAUGUACCGAAUCGGGAAAAAGGGAAAAAAAGGGUUUUUUUGGGAAAGUAUUAUGUUACGCCGUUCGGAUCUGCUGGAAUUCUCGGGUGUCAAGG`, the log2 enrichment was -0.112.
With `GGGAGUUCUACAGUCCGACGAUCCAAGUCCUGUGCUACACAUCGUAUGUACCGAAUCGGAAAGGAAAGGUUUUUUUGGAAAGUAUUAUGUUACGCCGUUCGGAUCUGCACUUCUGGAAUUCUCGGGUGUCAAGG` the log2 enrichment was -0.317.

Sample 3 — technique: RNA Bind-n-Seq; form: RNA; sample: in vitro; concentration: 365 nM; baseline: no-protein control; reading: higher = stronger binding
Target: RNA binding protein fox-1 homolog 2, RRM domain, GST-SBP tag (RBFOX2, Homo sapiens, UniProt O43251-10, residues 100-194)
Notes: natural RNA segment, single round, ends assumed
Target sequence (chain): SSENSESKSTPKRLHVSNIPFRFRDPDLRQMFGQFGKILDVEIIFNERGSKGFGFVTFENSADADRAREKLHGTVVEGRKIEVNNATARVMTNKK
`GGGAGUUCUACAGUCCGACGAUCUGCCGCCUGACCGGGCGACCCUUUUCAGUUCGGCAAACGUCGCUCCCUUCAUUUUGGGACUGAGGCUGCAGCAUUGGAACAAAAGAGCAUUAUUUCAAUUUUUCUUUCUUUGGAAUUCUCGGGUGCCAA`: “RBNS enrichment (R)” 0.357.
Under “RBNS enrichment (R)”, `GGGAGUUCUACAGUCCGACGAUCUGGCCUUGGUGUGGAGGGGCUGUACUCUGAGCCCAAGUGAGUCAGCUAUAGGAAGAGGCCAUACCUAGAGCCAAGAACCAUGAAGGCCUGAGAGACGGCAGACUGAGCAGUGGAAUUCUCGGGUGCCAA` is recorded as 0.901.
`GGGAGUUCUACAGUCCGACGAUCAAGACCUUUCCCAUAGGAGUUCAAGAACUGGACUGUUGUGAAGAAGUCAGCUCUUAUCUCAGGUUGGUAUCUUUCAUCAAAUCCAGAUGCAAAGCAGCACUAGUGAAAAUUGGAAUUCUCGGGUGCCAA` — result for “RBNS enrichment (R)”: 0.417.
`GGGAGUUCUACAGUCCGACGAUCGUAUUACGUAUAAAUUAAUAUAAAAUGAUUACCUCUGGUGUUGACAGGUUUGAACUUGCACUUCUUAAGGAACAGCCAUAAUCCUCUGAAUGAUGCAUUAAUUACUGACUUGGAAUUCUCGGGUGCCAA` — result for “RBNS enrichment (R)”: 0.614.
`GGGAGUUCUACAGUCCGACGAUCUGCAUUGAUUAAUGUUCACUUAUACAUUCCUGUACAGAAAUUAUGAUUUUUGUGAUUAUAGUAAUAAAAUGAUAUUACUUGUGAAAUAUUAGUAAUAAAUUAUUUGAGUAUGGAAUUCUCGGGUGCCAA` — result for “RBNS enrichment (R)”: 0.831.
For `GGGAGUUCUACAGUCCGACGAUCAGUGGGAAUUAGGAGAGAAGGUAGGGGUUGGGAAUCAGAGAGAAUGGCUUUGGUCUCUUGCUUGUGGGACUAGCCUGGCUUGGGACUAAAUGCCCUGCUCUGAACACGAAUGGAAUUCUCGGGUGCCAA`, “RBNS enrichment (R)” read 2.82.
Under “RBNS enrichment (R)”, `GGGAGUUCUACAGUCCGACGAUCAAAUGUGUUUAUUCUCUACAAUAUAUAAAAACAUAUUGGACUACUAUUACAUAAUUAAAUUACUCUUUAUUUGCUUAAAGAGGGUGAUUAUUUUUUCACUUACCGUUCCAUGGAAUUCUCGGGUGCCAA` is recorded as 0.356.
Under “RBNS enrichment (R)”, `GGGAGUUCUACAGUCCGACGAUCUAAGCACCAUGUGCUAGGCCUCCUCUUAAAUGUUUUUUAAAAAAUAUUAACUUGUUCAAUUCCCUUAACUCUAUGAAAUAGGCAUUAUUACUACCCCCAGGUUUUCAAAUUGGAAUUCUCGGGUGCCAA` is recorded as 0.498.
`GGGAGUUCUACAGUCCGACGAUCCUUUUGUGUGUGCGCAUGCUGCCCUCUUAACUGCUUUUAGUAUUCAGAAAGGUUCCAUUUAUGUUUUACUCCUGAAAGUGAAACCCUCUUAGGCAACUUGUUUCAUAUUCUGGAAUUCUCGGGUGCCAA` — result for “RBNS enrichment (R)”: 3.03.
`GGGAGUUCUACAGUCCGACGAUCUUGUUUUUUCGGAUGUUUUCUGGUUUUGUUUCCUUGGAAAUAAAUUAAUAUAUUGUUUUCCACCUUCAGGAAUAGUGGAUAUUUAUUUGAUACCUGGUUAAUAUGCACUGUGGAAUUCUCGGGUGCCAA` — result for “RBNS enrichment (R)”: 0.566.
`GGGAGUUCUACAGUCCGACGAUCCGAGCCCUGGGCUUUGAAGGCAGCCUUAGGACAAACUCCUCUGCCUAAGGCAUCAUGCCUCAGCCCCUUGCACUGUAUGUUCCUAUAUGUCUACUUGUAUUGAUCCUUUGUGGAAUUCUCGGGUGCCAA`: “RBNS enrichment (R)” 0.776.
`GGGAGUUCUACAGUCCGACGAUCACACUUGCAGGACUGAAAGGCUGCUCUGGUGAGGCAGCCUCUGUUUAAACCGGCCCCACAUGAAGAGAACAUCCCUUGAGACGAAUUUGGAGACUGGGAUUAGAGCCUUUUGGAAUUCUCGGGUGCCAA` — result for “RBNS enrichment (R)”: 0.653.

Sample 4 — technique: DHFR PCA, deep sequencing; sample: yeast; together with: (+)-ABA 17 µM; baseline: wild-type fitted maximum; reading: higher = stronger binding
Target: ABI1, truncated, D143A, DHFR fusion (Arabidopsis thaliana)
Notes: methotrexate growth selection, single substitutions
Parent: PYL1, truncated, DHFR fusion (Arabidopsis thaliana); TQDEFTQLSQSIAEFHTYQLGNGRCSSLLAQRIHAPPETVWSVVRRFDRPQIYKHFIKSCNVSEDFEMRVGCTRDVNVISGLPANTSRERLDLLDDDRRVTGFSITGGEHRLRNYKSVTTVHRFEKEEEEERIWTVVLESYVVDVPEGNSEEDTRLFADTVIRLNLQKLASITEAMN
`K126H`: “relative binding score” 90.4%.
For `V121K`, “relative binding score” read 1.64%.
Under “relative binding score”, `K168C` is recorded as 78.2%.
`N149Y` — result for “relative binding score”: 2.45%.
Under “relative binding score”, `D3I` is recorded as 73.9%.
`E151V`: “relative binding score” 87.8%.
For `L112R`, “relative binding score” read -3%.
For `K58W`, “relative binding score” read 26.2%.
Under “relative binding score”, `G21W` is recorded as 64.2%.
Under “relative binding score”, `V70W` is recorded as 13.3%.
`F15E`: “relative binding score” 13.6%.
Under “relative binding score”, `T73C` is recorded as 78.7%.
`T6Q` — result for “relative binding score”: 88.2%.
Under “relative binding score”, `Y18P` is recorded as 81.4%.
`H110E` — result for “relative binding score”: 3.53%.
